Literature values, collected from citations in different studies.
Compare with care: the assays were run in different laboratories. Numbers after ± are the reported error.
Chain of UniProt Q9UK32 (whole entry, looked up): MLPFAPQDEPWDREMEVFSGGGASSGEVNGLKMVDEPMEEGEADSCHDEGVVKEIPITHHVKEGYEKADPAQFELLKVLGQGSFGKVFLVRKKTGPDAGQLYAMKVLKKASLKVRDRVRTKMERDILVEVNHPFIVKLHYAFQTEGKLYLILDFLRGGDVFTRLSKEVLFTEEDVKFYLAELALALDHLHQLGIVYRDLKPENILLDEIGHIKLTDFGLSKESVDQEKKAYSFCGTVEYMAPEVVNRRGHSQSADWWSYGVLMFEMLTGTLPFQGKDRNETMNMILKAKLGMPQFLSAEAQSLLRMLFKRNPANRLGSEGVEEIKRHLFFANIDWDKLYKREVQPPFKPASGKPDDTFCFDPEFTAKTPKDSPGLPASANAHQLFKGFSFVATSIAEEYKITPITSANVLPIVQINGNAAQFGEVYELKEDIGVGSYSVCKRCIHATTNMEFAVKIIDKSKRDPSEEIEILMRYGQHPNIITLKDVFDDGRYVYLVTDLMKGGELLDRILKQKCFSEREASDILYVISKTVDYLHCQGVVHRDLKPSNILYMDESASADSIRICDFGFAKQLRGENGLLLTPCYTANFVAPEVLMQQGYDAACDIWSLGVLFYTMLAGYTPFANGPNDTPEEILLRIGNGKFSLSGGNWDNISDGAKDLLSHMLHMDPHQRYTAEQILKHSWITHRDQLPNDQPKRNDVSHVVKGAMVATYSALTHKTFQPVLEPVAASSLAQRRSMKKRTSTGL

Cc1c(C#N)cccc1[C@@H](C)Nc1nnc(C)c2cnc(N3CCOCC3)cc12 — IC50 (HOP-92; 3D cell viability; 14 d): 220.4 ± 0.35 nM
CNC(=O)c1c(C)oc2cc(Oc3ncnc4cc(OC)c(OC)cc34)ccc12 — dose recovered unchanged (feces; 5 mg radiolabelled, time not given): 5.34%
CO[C@@H](C)Cn1c(=O)n(C)c2cnc3ccc(-c4cncc(C(C)(C)O)c4)cc3c21 — AUC(0-tau) (human; 200 mg twice daily, monotherapy, steady state, day 15): 3280 ng·h/mL
Cc1cn([C@@H]2C[C@@H](O)[C@H](CO)O2)c(=O)[nH]c1=O — oral bioavailability (rat): 60%
CCCC(C)(C)C(=O)O — EC10 (small eyes; zebrafish embryo; nominal concentration): 540000 nM
O=C(O)CN(CCN(CC(=O)O)CC(=O)O)CCN(CC(=O)O)CC(=O)O — protonation constant (log) (pH-potentiometry, refers to: logK1H; 0.1 M NaClO4; 25 °C): 10
Nc1ccn([C@@H]2O[C@H](CO)[C@@H](O)C2(F)F)c(=O)n1 — dose reductions due to Leukopenia (pancreatic cancer patients; dose not given): 13%
O=C(c1cccnc1-c1ccncc1)N1CCC(O)(Cc2ccccc2)CC1 — participants with treatment-emergent adverse events (human; dose not given): 80.3%
CC(=O)c1c(C)c2cnc(Nc3ccc(N4CCNCC4)cn3)nc2n(C2CCCC2)c1=O — AUC(0-24) (human; 125 mg, single dose): 1730 ng·h/mL
C#C[C@]1(OC(C)=O)CC[C@H]2[C@@H]3CCC4=CC(=NO)CC[C@@H]4[C@H]3CC[C@@]21CC (mixture of isomers) — AUC(0-3 h) (human; 0.25 mg single dose, fasted, reference formulation): 0.0637 ng·h/mL
CC(F)(F)c1cc(F)ccc1-c1sc2cc(O)ccc2c1Oc1ccc(/C=C/C(=O)O)cc1 — efficacious AUC (mouse; 20 mg/kg once daily): 3510 ng·h/mL
Nc1ccn([C@@H]2CS[C@H](CO)O2)c(=O)n1 — oral bioavailability (woodchuck; 20 mg/kg): 17 to 53%
COc1cc2c(Oc3ccc4[nH]c(C)cc4c3F)ccnc2cc1OCC1(N)CC1 — AUC(0-42 days) (human; 16 mg/day, two cycles): 2240 ± 814 ng·h/mL
C[C@@H]1CCO[C@H]2Cn3cc(C(=O)NCc4ccc(F)cc4F)c(=O)c(O)c3C(=O)N12 — apparent volume of distribution (population PK; treatment-naive adult patients; dose not given): 17.4 L
Cc1cc(-c2nccc3c2ccn3CC(=O)Nc2ccc(-c3cnccn3)cn2)ccn1 — Cmax, total (rat; 6 mg/kg/day, 1 month, repeat dosing): 2.9 µM
COc1cc(Cc2cnc(N)nc2N)cc(OC)c1OC — CL (human): 1.17 mL/min/kg
CC1(C)CCC(CN2CCN(c3ccc(C(=O)NS(=O)(=O)c4ccc(NCC5CCOCC5)c([N+](=O)[O-])c4)c(Oc4cnc5[nH]ccc5c4)c3)CC2)=C(c2ccc(Cl)cc2)C1 — steady-state plasma concentration (Japanese patients, plasma; 400 mg, phase 1/2 study): 0.808 ± 0.593 µg/mL
O=C(O)c1cc(O)c(O)c(O)c1 — blood concentration (rat; oral, 588 µmol/kg, 15 min): 71 µM
CC1(C)S[C@@H]2[C@H](NC(=O)[C@H](N)c3ccccc3)C(=O)N2[C@H]1C(=O)O — MIC (Pseudomonas aeruginosa; clinical isolate RKI-No_359/11): > 16 µg/mL
C=CC(=O)NC1CCN(c2ncc3ncnc(Nc4ccc(Oc5ccc6c(c5)ncn6C)c(C)c4)c3n2)CC1 — glucuronidation contribution to metabolism (in vitro): 13 to 25%
Nc1cc(C(F)(F)F)c(-c2nc(N3CCOCC3)nc(N3CCOCC3)n2)cn1 — remaining activity (Ribosomal protein S6 kinase alpha-6, C-terminal kinase domain (RPS6KA6, Homo sapiens, UniProt Q9UK32); enzyme activity; 10 µM; reference: untreated): 100%
CO[C@H]1C[C@@H]2CC[C@@H](C)[C@@](O)(O2)C(=O)C(=O)N2CCCC[C@H]2C(=O)O[C@H]([C@H](C)C[C@@H]2CC[C@@H](OCCO)[C@H](OC)C2)CC(=O)[C@H](C)/C=C(\C)[C@@H](O)[C@@H](OC)C(=O)[C@H](C)C[C@H](C)/C=C/C=C/C=C/1C — apparent peripheral volume (V2/F) (plasma; concentration not given, population PK two-compartment): 517 L
CN(C)C(=N)N=C(N)N — rate constant k12 (healthy human subjects): 0.0194 min⁻¹
CNC(C)C1CCC(N)C(OC2C(N)CC(N)C(OC3OCC(C)(O)C(NC)C3O)C2O)O1 (stereo not drawn) — MIC (Pseudomonas aeruginosa; clinical isolate RKI-No_359/11): > 8 µg/mL
CCO[C@H]1CCN(Cc2c(OC)cc(C)c3[nH]ccc23)[C@H](c2ccc(C(=O)O)cc2)C1 — maximum unbound fraction (human plasma; 10000 ng/mL): 25%
C[C@H]1COCCN1c1nc(-c2cnc(N)cc2C(F)F)nc(N2CCOCC2)n1 — GI50 (OVCAR-3): 118 nM
CC(C)(C(=O)O)c1ccc(C(O)CCCN2CCC(C(O)(c3ccccc3)c3ccccc3)CC2)cc1 (stereo not drawn) — AUC(0-6 h) (healthy volunteers; dose not given, intermediate P-gp activity category): 148 to 218 ng·h/mL

A few entries again:
C#C[C@]1(OC(C)=O)CC[C@H]2[C@@H]3CCC4=CC(=NO)CC[C@@H]4[C@H]3CC[C@@]21CC (mixture of isomers) — AUC(0-3 h) (human; 0.25 mg single dose, fasted, reference formulation): 0.0637 ng·h/mL
CC(F)(F)c1cc(F)ccc1-c1sc2cc(O)ccc2c1Oc1ccc(/C=C/C(=O)O)cc1 — efficacious AUC (mouse; 20 mg/kg once daily): 3510 ng·h/mL
Nc1ccn([C@@H]2CS[C@H](CO)O2)c(=O)n1 — oral bioavailability (woodchuck; 20 mg/kg): 17 to 53%
